Experimental data of several laboratories.
Lines come from different studies, so protocols differ.

Structure (SMILES) | host | sample | route | dose | notes | Cmax
O=c1c2cc(Cl)ccc2sc2c(NCc3ccccc3)nc3ccccc3c12 | male Sprague-Dawley rat | plasma | intravenous | 3 mg/kg | single dose | 1450 ng/mL
CC1(C)CNC(=O)c2ccccc21 | rat | plasma | oral | 5 mg/kg | single dose | 1270 ng/mL
CC(=O)Oc1c2c(c3ccc4c(c3c1OC(C)=O)C=CC(=O)C4(C)C)OC[C@@H]2C | female Sprague-Dawley rat | serum | intravenous | 10 mg/kg |  | 4520 ng/mL
Cn1cc(-c2cc(N3CCCS3(=O)=O)ccc2N[C@H]2CC[C@H](C)CC2)c2cc[nH]c2c1=O | Sprague-Dawley rat | plasma | oral | 3 mg/kg |  | 29.1 ng/mL
C[Si](C)(C)C[C@@H](CN)CC(=O)O | male Sprague-Dawley rat | plasma | oral | 100 mg/kg | single dose | 102 µM
COc1ccc(S(=O)(=O)N2CCc3ccccc3C2)cc1N1CCN(C(=O)c2ccc(F)cc2C(F)(F)F)CC1 | rat | plasma | intravenous | 10 mg/kg | single dose | 963 ng/mL
N=C(N)NCCC[C@H](NC(=O)[C@@H]1CCCN1C(=O)[C@H](Cc1ccccc1)NC(=O)[C@@H]1CCCN1C(=O)[C@H](Cc1c[nH]cn1)NC(=O)[C@@H](N)Cc1ccccc1)C(=O)O | male Sprague-Dawley rat | plasma | oral | 50 mg/kg |  | 125 ng/mL
CN1Cc2c(Cl)cc(Cl)cc2[C@H](c2cccc(S(=O)(=O)NCCOCCOCCOCCNC(=O)NCCCCNC(=O)NCCOCCOCCOCCNS(=O)(=O)c3cccc([C@@H]4CN(C)Cc5c(Cl)cc(Cl)cc54)c3)c2)C1 | male Sprague-Dawley rat | plasma | oral | 30 mg/kg |  | < 15 ng/mL
NC(COc1ccccc1C(F)(F)F)c1ccccc1 (stereo not shown) | male Sprague-Dawley rat | serum | intravenous | 5 mg/kg |  | 250 ng/mL
O=C(Nc1ccc(OC(F)(F)F)cc1)N1CCC(Cc2cccc(Oc3ccc(C(F)(F)F)cn3)c2)CC1 | male Sprague-Dawley rat | blood | oral | 1 mg/kg |  | 0.044 µM
Cc1cc(N2CCC(C#N)(C3(C)CC3)C2=O)cc(C(=O)NCc2cc(F)cc(-c3cnn(C)c3)c2)n1 (racemic) | male Sprague-Dawley rat | plasma | oral | 3 mg/kg |  | 0.9 µM
CN1CCN(c2ccc(Nc3ncc(Cl)c(Nc4ccccc4P(C)(C)=O)n3)cc2Br)CC1 | male Sprague-Dawley rat | plasma | oral | 25 mg/kg |  | 326 ng/mL
C[Si]1(C[C@@H](CN)CC(=O)O)CCCC1 | male Sprague-Dawley rat | plasma | oral | 30 mg/kg | single dose | 34.3 µM
COc1c2c(cc3oc(CO)cc(=O)c13)O[C@H](C(C)(C)O)C2 | male Sprague-Dawley rat | plasma | oral | 2 mg/kg |  | 200 ng/mL
CN1Cc2c(Cl)cc(Cl)cc2C(c2ccc(S(=O)(=O)NCCOCCOCCOCCNC(=O)C(O)C(O)C(=O)NCCOCCOCCOCCNS(=O)(=O)c3ccc(C4CN(C)Cc5c(Cl)cc(Cl)cc54)cc3)cc2)C1 (stereo not shown) | male Sprague-Dawley rat | plasma | oral | 10 mg/kg |  | < 5 ng/mL
CC12CC3CC(C)(C1)CC(NC(=O)Nc1ccc(C(=O)N4CCC[C@H](C(N)=O)C4)cc1F)(C3)C2 | Sprague-Dawley rat | plasma | intravenous | 10 mg/kg |  | 7.11 µM
COc1cc2ncnc(Oc3ccc(Nc4nccc5[nH]cc(-c6ccc(F)cc6)c(=O)c45)cc3F)c2cc1OC | male Sprague-Dawley rat | plasma | intravenous | 5 mg/kg |  | 30700 ng/mL
CSCOC1C(=O)C2(C)C(OCSC)CC3OCC3(OC(C)=O)C2C(OC(=O)c2ccccc2)C2(O)CC(OC(=O)C(O)C(C=C(C)C)NC(=O)OC(C)(C)C)C(C)=C1C2(C)C (stereo not shown) | male Sprague-Dawley rat | plasma | intravenous | 4 mg/kg |  | 1360 ng/mL
CC(C)(C)C(=O)Nc1ccc2[nH]c(CN3CCC(N(CCCN4CCOCC4)CC4OC(n5cnc6c(N)ncnc65)C(O)C4O)CC3)nc2c1 (stereo not shown) | male Sprague-Dawley rat | plasma | intravenous | 20 mg/kg |  | 5840 ng/mL
CC12CC3CC(C)(C1)CC(NC(=O)Nc1ccc(C(=O)N4CCCC(C(N)=O)C4)cc1)(C3)C2 (stereo not shown) | Sprague-Dawley rat | plasma | oral | 10 mg/kg |  | 0.12 µM
Cc1cc(/C=C/C#N)cc(C)c1Oc1nc(NC2CCN(Cc3ccc(P(C)(C)=O)cc3)CC2)nc2ccsc12 | male Sprague-Dawley rat | plasma | oral | 10 mg/kg |  | 333 ng/mL
C#Cc1cccc(Nc2ncnc3cc(OC)c(OCCCN4CCOCC4)cc23)c1 | Sprague-Dawley rat | plasma | oral | 40 mg/kg |  | 1800 ng/mL
Cc1ccc(OCC(=O)N(Cc2cccs2)c2ccn[nH]2)cc1 | female Sprague-Dawley rat | plasma | oral | 10 mg/kg | single dose | 8.51 ng/mL
CN1Cc2c(Cl)cc(Cl)cc2[C@H](c2ccc(S(=O)(=O)NCCOCCOCCNC(=O)COCC(=O)NCCOCCOCCNS(=O)(=O)c3ccc([C@@H]4CN(C)Cc5c(Cl)cc(Cl)cc54)cc3)cc2)C1 | male Sprague-Dawley rat | plasma | oral | 30 mg/kg |  | < 2 ng/mL
N#Cc1cnc2cc(OCC3CCNCC3)c(F)cc2c1Nc1cc(F)c(OCc2cccc(Cl)n2)cc1Cl | male Sprague-Dawley rat | plasma | oral | 300 mg/kg |  | 8000 ng/mL

Excerpt of the above:
Structure (SMILES) | host | sample | route | dose | notes | Cmax
CN1Cc2c(Cl)cc(Cl)cc2C(c2ccc(S(=O)(=O)NCCOCCOCCOCCNC(=O)C(O)C(O)C(=O)NCCOCCOCCOCCNS(=O)(=O)c3ccc(C4CN(C)Cc5c(Cl)cc(Cl)cc54)cc3)cc2)C1 (stereo not shown) | male Sprague-Dawley rat | plasma | oral | 10 mg/kg |  | < 5 ng/mL
N=C(N)NCCC[C@H](NC(=O)[C@@H]1CCCN1C(=O)[C@H](Cc1ccccc1)NC(=O)[C@@H]1CCCN1C(=O)[C@H](Cc1c[nH]cn1)NC(=O)[C@@H](N)Cc1ccccc1)C(=O)O | male Sprague-Dawley rat | plasma | oral | 50 mg/kg |  | 125 ng/mL
CN1Cc2c(Cl)cc(Cl)cc2[C@H](c2ccc(S(=O)(=O)NCCOCCOCCNC(=O)COCC(=O)NCCOCCOCCNS(=O)(=O)c3ccc([C@@H]4CN(C)Cc5c(Cl)cc(Cl)cc54)cc3)cc2)C1 | male Sprague-Dawley rat | plasma | oral | 30 mg/kg |  | < 2 ng/mL
COc1c2c(cc3oc(CO)cc(=O)c13)O[C@H](C(C)(C)O)C2 | male Sprague-Dawley rat | plasma | oral | 2 mg/kg |  | 200 ng/mL
